# Results of several laboratories.
# Lines come from different studies, so protocols differ. Values joined by “and” are separate records of one study, mostly repeats; a detail may differ.
# T1: itself; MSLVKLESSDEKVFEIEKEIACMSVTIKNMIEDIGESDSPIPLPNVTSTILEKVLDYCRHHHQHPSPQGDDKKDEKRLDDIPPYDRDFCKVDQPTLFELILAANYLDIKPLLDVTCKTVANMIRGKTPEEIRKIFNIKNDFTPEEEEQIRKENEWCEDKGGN
# B1: Skp1 (Dictyostelium discoideum, UniProt P52285); pentasaccharide on hydroxyproline 143; chain MSLVKLESSDEKVFEIEKEIACMSVTIKNMIEDIGESDSPIPLPNVTSTILEKVLDYCRHHHQHPSPQGDDKKDEKRLDDIPPYDRDFCKVDQPTLFELILAANYLDIKPLLDVTCKTVANMIRGKTPEEIRKIFNIKNDFTPEEEEQIRKENEWCEDKGGN
# B2: LAG3 extracellular domain 23-450 (Homo sapiens, UniProt P18627); chain LQPGAEVPVVWAQEGAPAQLPCSPTIPLQDLSLLRRAGVTWQHQPDSGPPAAAPGHPLAPGPHPAAPSSWGPRPRRYTVLSVGPGGLRSGRLPLQPRVQLDERGRQRGDFSLWLRPARRADAGEYRAAVHLRDRALSCRLRLRLGQASMTASPPGSLRASDWVILNCSFSRPDRPASVHWFRNRGQGRVPVRESPHHHLAESFLFLPQVSPMDSGPWGCILTYRDGFNVSIMYNLTVLGLEPPTPLTVYAGAGSRVGLPCRLPAGVGTRSFLTAKWTPPGGGPDLLVTGDNGDFTLRLEDVSQAQAGTYTCHIHLQEQQLNATVTLAIITVTPKSFGSPGSLGKLLCEVTPVSGQERFVWSSLDTPSQRSFSGPWLEAQEAQLLSQPWQCQLYQGERLLGAAVYFTELSSPGAQRSGRAPGALPAGHL
Molecule,partner,assay,system,conditions,subunits per oligomer
gp7 virion capsid,itself,cryo-EM,,,5
yadA fragment (Yersinia enterocolitica),itself,SDS-PAGE,,,3
B1 (Skp1),"T1, itself",SAXS,,Mr from scattering,2
nsaS fragment (Staphylococcus aureus),itself,AUC,,,2
dnaB N-terminal deletion (Helicobacter pylori),itself,SEC,,,6
htrA mature (Borrelia burgdorferi),itself,SEC,,20 °C,3
HBV core protein Cp149 dimer (hepatitis B virus),itself,resistive-pulse sensing,,,108 dimers and 111 dimers
carG (Serratia sp. ATCC 39006),itself,SEC,,,2
ITPR1 C2536A (Homo sapiens),itself,sucrose density gradient fractionation,lysate,,2
"ACE2/IGHM/JCHAIN ACE2 , monomer (Homo sapiens)",itself,SEC-MALS,,,10
GUCY1B3 catalytic domain (Homo sapiens),itself,native MS,,,2 and 4
dye-decolorizing peroxidase 29 PROSS mutations (Pseudomonas putida),itself,SEC,,,4
LL-37 mature (Homo sapiens),itself,native MS,,,3 and 4
fiber knob knob domain (adenovirus serotype 5),itself,native gel,,,3
ITPR1 C2505A/C2513A/C2536A/C2542A (Homo sapiens),itself,sucrose density gradient fractionation,lysate,,2
B2,itself,SEC-MALS,,,2
